Measured values gathered from unrelated publications.
Lines come from different studies, so protocols differ. ± gives the spread as reported.

`O=C1NC2(CC2)COc2ncc(F)cc2[C@H]2COCCN2c2ccn3ncc1c3n2` — result for “serum total protein”: 57.2 ± 2.4 g/L (Sprague-Dawley rat, male, serum; oral, 5 mg/kg/day, end of treatment, 4-week subacute toxicity).
`Cc1cnc(-c2ncn3c(=O)n(C)nnc23)o1` has a body weight of 31.6 ± 0.3 g (mice; intravenous, 125 mg/kg single dose, 7 days).
The tracer uptake of `Cc1ccccc1-c1ccc(-c2nc(-c3ccc(CN(C)CCCC(=O)O)c([18F])c3)no2)cc1C(F)(F)F` is reported as 0.09 %ID/g (rat, blood; 30 min).
The plasma concentration of `C/C(=N\OCCCN1CCCCC1)c1ccc(C(F)(F)F)cc1` is reported as 86.7 ± 22.9 ng/mL (C57BL/6 mouse, plasma; oral, 10 mg/kg, 4 h).
For `COc1cnc2cccc(N3CCc4c(cc(Cn5ccnc5)cc4-c4cn(C)nc4C(F)(F)F)C3=O)c2c1`, the body weight was 29.9 ± 1.2 g (CD-1 mice; intraperitoneal, 150 mg/kg once daily, day 4).
With `CSCC[C@@H]1NC(=O)[C@H](C(C)C)NC(=O)[C@H](CCCNC(=N)N)NC(=O)CNC(=O)[C@@H]2CCCN2C(=O)[C@@H](NC(=O)CNC(=O)[C@H](CO)NC(=O)CNC(=O)[C@H](CO)NC(=S)Nc2ccc(C[C@H]3CN(CC(=O)O)CCN(CC(=O)O)CCN3CC(=O)O)cc2)CSSC[C@@H](C(N)=O)NC(=O)[C@@H]2CCCN2C(=O)CNC(=O)[C@H](CCC(=O)O)NC(=O)[C@H](CC(=O)O)NC(=O)[C@H](CC(=O)O)NC(=O)CNC(=O)[C@H](CC(C)C)NC(=O)[C@H](Cc2c[nH]cn2)NC(=O)[C@H](CC(C)C)NC(=O)CNC(=O)[C@H](Cc2c[nH]cn2)NC1=O` [copper-64 labelled] the half-life was 22.8 ± 4.2 min (dynamic PET; CD rat, myocardial infarction model, left ventricular blood pool; intravenous, 18.5 MBq, 5 to 60 min).
`CC[C@H](C)[C@H](NC(=O)[C@H](CCCCN)NC(=O)CNC(=O)[C@H](CC(C)C)NC(=O)[C@H](Cc1ccccc1)NC(=O)[C@H](CCCCN)NC(=O)[C@H](CO)NC(=O)[C@H](Cc1ccccc1)NC(=O)[C@H](Cc1c[nH]c2ccccc12)NC(=O)[C@H](CCC(N)=O)NC(=O)[C@@H](NC(=O)[C@H](Cc1ccccc1)NC(=O)CCCCCNC(=O)CN1CCN(CC(=O)O)CCN(CC(=O)O)CCN(CC(=O)O)CC1)C(C)C)C(=O)N[C@@H](CCC(=O)O)C(=O)N1CCC[C@H]1C(=O)N[C@@H](CC(=O)O)C(=O)N[C@H](C(=O)N[C@@H](CO)C(=O)N[C@@H](CCC(N)=O)C(=O)N[C@H](C(=O)N[C@@H](CCC(N)=O)C(=O)N[C@@H](CC(=O)O)C(=O)N1CCC[C@H]1C(=O)N[C@@H](CC(N)=O)C(=O)N[C@@H](CC(=O)O)C(=O)N[C@@H](CCC(N)=O)C(=O)N[C@@H](Cc1ccc(O)cc1)C(=O)N[C@@H](CCC(=O)O)C(=O)N1CCC[C@H]1C(=O)N[C@@H](Cc1ccccc1)C(=O)O)C(C)C)C(C)C` [copper-64 labelled] has a tissue uptake of 3.8 ± 1.1 %ID/g (BALB/c mice, male, CT26 tumour-bearing, large intestine; 2 h, anti-PD1 plus anti-CTLA4 treated).
`CSCC[C@H](NC(=O)CNC(=O)[C@H](CCCCN)NC(=O)[C@H](CC(C)C)NC(=O)[C@@H]1CCCN1C(=O)[C@H](CO)NC(=O)[C@H](Cc1c[nH]cn1)NC(=O)[C@H](Cc1c[nH]c2ccccc12)NC(=O)[C@H](CCCNC(=N)N)NC(=O)[C@H](CC(C)C)NC(=O)[C@H](CCCNC(=N)N)NC(=O)[C@H](Cc1c[nH]c2ccccc12)NC(=O)[C@H](CS)NC(=O)CCCCCNC(=O)CN1CCN(CC(=O)O)CCN(CC(=O)O)CCN(CC(=O)O)CC1)C(=O)O` [copper-64 labelled] gave a tissue uptake of 6.38 %ID/g (ex vivo biodistribution; male C57BL/6J mice, stomach; intravenous, 1.85 MBq, 2 h, B16-F10 tumour-bearing).
The CC50 of `CC(C)(C)C(=O)OCOP(=O)(OCOC(=O)C(C)(C)C)C1CCCN(O)C1=O` (stereo not drawn) is reported as > 100 µM (A549).
`CC(=O)NCCCC[C@@H]1NC(=O)[C@H](Cc2c[nH]c3c(C)cccc23)NC(=O)[C@H]([C@@H](C)O)NC(=O)[C@H](CC(N)=O)NC(=O)[C@@H](NC(C)=O)C(C)(C)SSC(C)(C)[C@@H](C(=O)N[C@@H](Cc2ccc(OCCN)cc2)C(=O)N[C@@H](Cc2ccc3ccccc3c2)C(=O)NC2(C(=O)N[C@@H](CCC(=O)O)C(=O)N[C@@H](CC(N)=O)C(=O)N[C@@H](Cc3cccnc3)C(=O)N(C)CC(N)=O)CCOCC2)NC1=O`: “plasma protein binding” 55.8 ± 2.7% (equilibrium dialysis; mouse, plasma; 1 µM).
For `C[C@@H]1COCCN1c1nc(NCc2cccnc2C(F)(F)F)c2cccnc2n1`, the hepatocyte CLint was 3.5 µL/min/10⁶ cells (metabolic stability; dog, hepatocytes).
Under “mean tissue distribution”, `CSCC[C@H](N)C(=O)N[C@@H](C)C(=O)N[C@@H](Cc1c[nH]c2ccccc12)C(=O)N[C@@H](Cc1c[nH]cn1)C(=O)N[C@@H](CC(=O)O)C(=O)N[C@@H](CC(=O)O)C(=O)N[C@@H](CCC(=O)O)C(=O)N[C@@H](CCC(=O)O)C(=O)N[C@@H](Cc1ccccc1)C(=O)N[C@@H](C)C(=O)N[C@@H](CCCNC(=N)N)C(=O)N[C@@H](CCCNC(=N)N)C(=O)N[C@@H](CCCNC(=N)N)C(=O)N[C@@H](CCCNC(=N)N)C(=O)NCCCCCC(=O)NCCCCC(NC(=O)CCCCCNC(=O)[C@H](CCCNC(=N)N)NC(=O)[C@H](CCCNC(=N)N)NC(=O)[C@H](CCCNC(=N)N)NC(=O)[C@H](CCCNC(=N)N)NC(=O)[C@H](C)NC(=O)[C@H](Cc1ccccc1)NC(=O)[C@H](CCC(=O)O)NC(=O)[C@H](CCC(=O)O)NC(=O)[C@H](CC(=O)O)NC(=O)[C@H](CC(=O)O)NC(=O)[C@H](Cc1c[nH]cn1)NC(=O)[C@H](Cc1c[nH]c2ccccc12)NC(=O)[C@H](C)NC(=O)[C@@H](N)CCSC)C(=O)NCCCCC(NC(=O)C(CCCCNC(=O)CCCCCNC(=O)[C@H](CCCNC(=N)N)NC(=O)[C@H](CCCNC(=N)N)NC(=O)[C@H](CCCNC(=N)N)NC(=O)[C@H](CCCNC(=N)N)NC(=O)[C@H](C)NC(=O)[C@H](Cc1ccccc1)NC(=O)[C@H](CCC(=O)O)NC(=O)[C@H](CCC(=O)O)NC(=O)[C@H](CC(=O)O)NC(=O)[C@H](CC(=O)O)NC(=O)[C@H](Cc1c[nH]cn1)NC(=O)[C@H](Cc1c[nH]c2ccccc12)NC(=O)[C@H](C)NC(=O)[C@@H](N)CCSC)NC(=O)CCCCCNC(=O)[C@H](CCCNC(=N)N)NC(=O)[C@H](CCCNC(=N)N)NC(=O)[C@H](CCCNC(=N)N)NC(=O)[C@H](CCCNC(=N)N)NC(=O)[C@H](C)NC(=O)[C@H](Cc1ccccc1)NC(=O)[C@H](CCC(=O)O)NC(=O)[C@H](CCC(=O)O)NC(=O)[C@H](CC(=O)O)NC(=O)[C@H](CC(=O)O)NC(=O)[C@H](Cc1c[nH]cn1)NC(=O)[C@H](Cc1c[nH]c2ccccc12)NC(=O)[C@H](C)NC(=O)[C@@H](N)CCSC)C(N)=O` (stereo partly drawn) is recorded as 1.35% (C57BL/6 mouse female, uterus; dose not given, 3 h; reference: total).
`C#Cc1c(F)ccc2cc(O)cc(-c3ncc4c(N5CC6CCC(C5)N6C(=O)OC(C)OC(=O)c5ccccc5)nc(OC[C@@]56CCCN5C[C@H](F)C6)nc4c3F)c12` (stereo partly drawn) has a compound remaining of 98.9% (chemical stability; simulated intestinal fluid; 1 µM, 30 min).
`CCCC[C@@H]1NC(=O)[C@H](Cc2ccc(O)cc2)NC(=O)[C@@H]2CCCN2C(=O)[C@H](CC(=O)O)NC(=O)[C@H](C)NC(=O)[C@H](Cc2ccccc2)NC(=O)[C@@H]2CSCCC(=O)N3CN(CN(C3)C(=O)CCSC[C@@H](C(=O)N[C@@H](C)C(N)=O)NC1=O)C(=O)CCSC[C@H](NC(C)=O)C(=O)N[C@@H](CC(C)(C)C)C(=O)N1CCC[C@H]1C(=O)N[C@@H](CCC(=O)O)C(=O)N[C@H](CCCCNC(=O)CCc1cn(CCOCCOCCOCCN(CCOCCOCCOCCC(=O)N[C@H]3CSCCC(=O)N4CN5CN(C4)C(=O)CCSC[C@H](NC(=O)[C@@H](CCC(=O)O)NC(=O)[C@H](Cc4cccc6ccccc46)NC(=O)[C@@H]4CCCN4C3=O)C(=O)N[C@@H](CCSC)C(=O)N[C@@H](CCCCNC(=N)N)C(=O)N[C@@H](CCC(=O)O)C(=O)N[C@@H](Cc3c[nH]c4ccccc34)C(=O)N[C@@H](CO)C(=O)N[C@@H]([C@@H](C)O)C(=O)N3CCC[C@H]3C(=O)N3C[C@H](O)C[C@H]3C(=O)N[C@@H](Cc3c[nH]c4ccccc34)C(=O)N[C@H](C(N)=O)CSCCC5=O)CCOCCOCCOCCn3cc(CCC(=O)NCCCC[C@H]4NC(=O)[C@H](CCC(=O)O)NC(=O)[C@@H]5CCCN5C(=O)[C@H](CC(C)(C)C)NC(=O)[C@@H](NC(C)=O)CSCCC(=O)N5CN6CN(C5)C(=O)CCSC[C@H](NC(=O)[C@H](Cc5ccc(O)cc5)NC(=O)[C@@H]5CCCN5C4=O)C(=O)N[C@@H](Cc4ccccc4)C(=O)N[C@@H](C)C(=O)N[C@@H](CC(=O)O)C(=O)N4CCC[C@H]4C(=O)N[C@@H](Cc4ccc(O)cc4)C(=O)N[C@@H](CCCC)C(=O)N[C@H](C(=O)N[C@@H](C)C(N)=O)CSCCC6=O)nn3)nn1)C(=O)N1CCC[C@H]1C(=O)N[C@@H](Cc1ccc(O)cc1)C(=O)N2` has a Vd of 1 L/kg (rat, plasma; intravenous, 2 mg/kg).
`CC(C)[C@@H]1NC(=O)CNC(=O)[C@H](CC(N)=O)NC(=O)[C@H](CCCNC(=N)N)NC(=O)[C@H](Cc2ccc(O)cc2)NC(=O)[C@H](C(C)C)NC(=O)[C@@H](NC(=O)[C@@H](NC(=O)[C@H](CC(N)=O)NC(=O)[C@H](Cc2c[nH]c3ccccc23)NC(=O)[C@H](C)NC(=O)[C@H](Cc2ccccc2)NC(=O)CNC(=O)[C@H](CCCCN)NC(=O)[C@H](Cc2ccccc2)NC(=O)[C@H](Cc2ccccc2)NC(=O)[C@H](CCCCN)NC(=O)OCC2c3ccccc3-c3ccccc32)C(C)C)CSSC[C@@H](C(=O)N[C@@H](Cc2c[nH]cn2)C(=O)N[C@@H](CCCNC(=N)N)C(=O)N[C@@H](CCCNC(=N)N)C(=O)N[C@@H](C)C(=O)N[C@@H](CC(N)=O)C(N)=O)NC(=O)[C@H](C(C)C)NC(=O)[C@H](CCCNC(=N)N)NC1=O` gave a haematocrit of 41.8 ± 1.76% (ICR mice, blood; intraperitoneal, 5 mg/kg, day 5).
`CN1Cc2cc(Cl)ccc2-n2c(nnc2C2CCN(c3cccc([18F])n3)CC2)C1`: “total volume of distribution” 1.26 ± 0.42 mL/cm3 (PET two-tissue compartment model; rhesus monkey, amygdala; intravenous, dose not given, 100 min scan, baseline scan).
`N#[11C]c1ccc(-c2csc(NN=C3CCCC3)n2)cc1` gave a radioactivity uptake of 1.78 ± 0.24 %ID/g (C57BL/6 mice, male, heart; intravenous, 3 MBq, 30 min).
For `CCCC[C@H]1C(=O)N(C)[C@@H](CCCC)C(=O)N[C@@H](CCCNC(=O)CN2CCN(CC(=O)O)CCN(CC(=O)O)CCN(CC(=O)O)CC2)C(=O)N[C@H](C(=O)NCC(N)=O)CSCC(=O)N[C@@H](Cc2ccc(O)cc2)C(=O)N(C)[C@@H](C)C(=O)N[C@@H](CC(N)=O)C(=O)N2CCC[C@H]2C(=O)N[C@@H](Cc2c[nH]cn2)C(=O)N[C@@H](CC(C)C)C(=O)N(C)CC(=O)N[C@@H](Cc2c[nH]c3ccccc23)C(=O)N[C@@H](CO)C(=O)N[C@@H](Cc2c[nH]c3ccccc23)C(=O)N1C` [gallium-68 labelled], the tissue uptake was 8.46 ± 0.35 %ID/g (NOD/SCID mice with CHO-hPD-L1 xenograft, liver; 10 min post injection).

Repeated from above:
The tracer uptake of `Cc1ccccc1-c1ccc(-c2nc(-c3ccc(CN(C)CCCC(=O)O)c([18F])c3)no2)cc1C(F)(F)F` is reported as 0.09 %ID/g (rat, blood; 30 min).
The plasma concentration of `C/C(=N\OCCCN1CCCCC1)c1ccc(C(F)(F)F)cc1` is reported as 86.7 ± 22.9 ng/mL (C57BL/6 mouse, plasma; oral, 10 mg/kg, 4 h).
For `COc1cnc2cccc(N3CCc4c(cc(Cn5ccnc5)cc4-c4cn(C)nc4C(F)(F)F)C3=O)c2c1`, the body weight was 29.9 ± 1.2 g (CD-1 mice; intraperitoneal, 150 mg/kg once daily, day 4).
